Assay results collected from several papers.
Numbers after ± are the reported error. In brackets after ≈: the same amount, converted by molar mass.

CCC1(C)CCN(Cc2cc(N(C)C)c3c(c2O)C(=O)C2=C(O)[C@]4(O)C(=O)C(C(N)=O)=C(O)[C@@H](N(C)C)[C@@H]4C[C@@H]2C3)CC1 — MIC (Streptococcus pneumoniae; microbial growth, broth dilution): < 0.06 µg/mL
COc1ccc(C2OC(=O)c3ccc(-c4ccccc4)c(O)c32)c(OC)c1OC (stereo not drawn) — IC50 (Naegleria fowleri; parasite growth, resazurin; ATCC30808; 48 h): 17.4 µM
Oc1c(Br)cc(Br)c2nc3ccccc3nc12 — MBEC (Staphylococcus aureus; Calgary Biofilm Device; MRSA 1707; biofilm): 100 µM
CC[C@H](C)[C@H](NC(=O)[C@H](CCCN)NC(=O)[C@H](CC(N)=O)NC(=O)[C@H](CC(C)C)NC(=O)[C@H](Cc1ccccc1)NC(=O)[C@H](CCCN)NC(=O)[C@H](CCCNC(=N)N)NC(=O)[C@H](CC(C)C)NC(=O)[C@H](CC(C)C)NC(=O)[C@H](CCCN)NC(=O)[C@H](CCCNC(=N)N)NC(=O)[C@H](CC(C)C)NC(=O)CNC(C)=O)C(=O)N[C@@H](CCCN)C(=O)N[C@@H](CCCNC(=N)N)C(N)=O — geometric mean MIC (all bacteria tested): 4.96 µM
C[C@@H](c1ccn(Cc2cc(F)ccc2F)n1)[C@](O)(Cn1cnnn1)c1ccc(F)cc1F — MIC (Candida tropicalis; growth, broth microdilution; 2718; 24 h, 30 °C, ≥50% inhibition): < 0.008 µg/mL
Fc1ccc2c(c1)c1nc3ccc(Br)cc3c-1cn2Cc1cn(-c2ccccc2I)nn1 — fold change (Giardia duodenalis trophozoites; UHPLC-Q-TOF-MS, measured: C16 sphinganine; IC50, 0.111 h; relative to: 0.25% DMSO): 6.83
CN(C)c1cc(CNCc2ccccc2)c(O)c2c1C[C@H]1C[C@H]3[C@H](N(C)C)C(O)=C(C(N)=O)C(=O)[C@@]3(O)C(O)=C1C2=O — MIC (Streptococcus pneumoniae; microbial growth, broth dilution): 0.125 µg/mL (≈ 0.217 µM)
Cc1ccc2nc(-c3ccccc3)c(CN3CCN(c4ccc(Cl)cc4)CC3)n2c1 — EC50 (Trypanosoma cruzi; 3T3 host cells, Tulahuen beta-galactosidase; 6 days): 1.9 µM
N#CCC(=O)NNC(=S)Nc1ccc(Cl)c(Cl)c1 — mRNA level (Saccharomyces cerevisiae; inhibitor, measured: PDR5, SNQ2; concentration not given, together with: ketoconazole 40 µM): inhibited
CC(C)CNCc1cc(N(C)C)c2c(c1O)C(=O)C1=C(O)[C@]3(O)C(=O)C(C(N)=O)=C(O)[C@@H](N(C)C)[C@@H]3C[C@@H]1C2 — MIC (Streptococcus pneumoniae; ATCC 700905, Tet M ribosome protection): 0.25 µg/mL (≈ 0.461 µM)
O=C(c1cc([N+](=O)[O-])ccc1Cl)N1CCN(c2cccc(Cl)c2)CC1 — IC50 (Saccharomyces cerevisiae; cell growth; wild type): > 200 µM
CN(C)c1cc(CN2CCc3ccccc3C2)c(O)c2c1C[C@H]1C[C@H]3[C@H](N(C)C)C(O)=C(C(N)=O)C(=O)[C@@]3(O)C(O)=C1C2=O — MIC (Streptococcus pneumoniae; microbial growth, broth dilution): 0.125 µg/mL (≈ 0.207 µM)
NC(=O)c1ccc(-c2cn([C@@H]3O[C@H](CO)[C@@H](O)[C@H]3O)c3ncnc(N)c23)cc1 — EC50 (Trichomonas vaginalis; resorufin; G3, metronidazole-sensitive; 24 h + 2 h, 2% O2): 27.4 ± 0.49 µM
C=C(C)[C@@H]1CCC=C2CC[C@]3(C)[C@H](CC[C@@H]4[C@@]5(C)CCCNC(C)(C)[C@@H]5CC[C@]43C)[C@H]21 — antiviral activity (Human cytomegalovirus; cytopathic effect; HFF, AD169; concentration not given): inactive
C[C@@H](c1ccn(Cc2ccc(F)c(C(F)(F)F)c2)n1)[C@](O)(Cn1cnnn1)c1ccc(F)cc1F — MIC (Candida tropicalis; growth, broth microdilution; 2718; 24 h, 30 °C, ≥50% inhibition): < 0.008 µg/mL
